Measurements collected from several papers.
Protocols differ between the studies behind these lines. Numbers after ± are the reported error.
Papain: Papain (Carica papaya, UniProt P00784)

Sequences of proteins named here, by UniProt entry; tags and fusion partners are left off. Residues count along the entry.
UniProt P00784, 134-345 limits assumed: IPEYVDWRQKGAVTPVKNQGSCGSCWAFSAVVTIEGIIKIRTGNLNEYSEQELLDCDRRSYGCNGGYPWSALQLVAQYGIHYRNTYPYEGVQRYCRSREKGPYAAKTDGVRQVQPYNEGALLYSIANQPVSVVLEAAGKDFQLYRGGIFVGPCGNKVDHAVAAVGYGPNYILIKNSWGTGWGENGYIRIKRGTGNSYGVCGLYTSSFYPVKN
UniProt P23975, whole entry: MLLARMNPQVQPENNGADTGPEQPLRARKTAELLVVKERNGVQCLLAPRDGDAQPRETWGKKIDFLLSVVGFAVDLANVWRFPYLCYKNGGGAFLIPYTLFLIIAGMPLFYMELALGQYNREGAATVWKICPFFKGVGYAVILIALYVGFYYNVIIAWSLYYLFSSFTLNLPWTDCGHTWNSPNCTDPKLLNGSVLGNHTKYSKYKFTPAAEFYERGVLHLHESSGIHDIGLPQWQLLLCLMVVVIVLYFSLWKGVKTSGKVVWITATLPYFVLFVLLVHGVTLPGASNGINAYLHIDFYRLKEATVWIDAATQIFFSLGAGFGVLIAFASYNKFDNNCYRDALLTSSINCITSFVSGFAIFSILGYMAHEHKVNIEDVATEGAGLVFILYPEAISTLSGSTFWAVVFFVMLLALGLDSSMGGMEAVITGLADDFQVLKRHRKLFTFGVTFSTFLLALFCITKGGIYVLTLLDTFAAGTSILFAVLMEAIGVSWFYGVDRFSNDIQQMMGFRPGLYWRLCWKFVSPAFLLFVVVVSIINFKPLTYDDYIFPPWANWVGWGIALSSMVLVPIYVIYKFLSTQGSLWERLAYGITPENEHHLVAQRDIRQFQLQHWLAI
UniProt P35462, whole entry: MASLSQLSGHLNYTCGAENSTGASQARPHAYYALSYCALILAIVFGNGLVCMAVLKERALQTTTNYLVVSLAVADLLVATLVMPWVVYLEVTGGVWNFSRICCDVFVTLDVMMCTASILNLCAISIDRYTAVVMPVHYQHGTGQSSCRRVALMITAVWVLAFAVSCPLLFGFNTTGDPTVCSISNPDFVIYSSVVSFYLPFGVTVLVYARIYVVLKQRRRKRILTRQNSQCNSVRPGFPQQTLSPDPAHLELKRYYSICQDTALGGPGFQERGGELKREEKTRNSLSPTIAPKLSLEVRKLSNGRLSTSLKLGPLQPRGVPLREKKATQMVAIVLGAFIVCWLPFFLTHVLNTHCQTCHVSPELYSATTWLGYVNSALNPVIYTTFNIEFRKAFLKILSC
UniProt P46098, 24-478 limits assumed: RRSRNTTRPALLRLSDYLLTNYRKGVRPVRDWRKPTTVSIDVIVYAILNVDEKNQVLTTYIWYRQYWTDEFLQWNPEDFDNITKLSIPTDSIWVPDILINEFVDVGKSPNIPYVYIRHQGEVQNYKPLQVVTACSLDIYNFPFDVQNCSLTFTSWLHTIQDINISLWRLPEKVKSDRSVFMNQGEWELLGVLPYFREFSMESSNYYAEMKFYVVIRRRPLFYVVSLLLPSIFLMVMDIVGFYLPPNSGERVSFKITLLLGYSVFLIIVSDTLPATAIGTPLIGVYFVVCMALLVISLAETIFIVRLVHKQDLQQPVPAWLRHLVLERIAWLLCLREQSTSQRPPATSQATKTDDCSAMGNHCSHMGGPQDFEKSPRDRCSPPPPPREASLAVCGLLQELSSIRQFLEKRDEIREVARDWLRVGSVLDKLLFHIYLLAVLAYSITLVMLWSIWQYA
UniProt Q48485, 24-384 limits assumed: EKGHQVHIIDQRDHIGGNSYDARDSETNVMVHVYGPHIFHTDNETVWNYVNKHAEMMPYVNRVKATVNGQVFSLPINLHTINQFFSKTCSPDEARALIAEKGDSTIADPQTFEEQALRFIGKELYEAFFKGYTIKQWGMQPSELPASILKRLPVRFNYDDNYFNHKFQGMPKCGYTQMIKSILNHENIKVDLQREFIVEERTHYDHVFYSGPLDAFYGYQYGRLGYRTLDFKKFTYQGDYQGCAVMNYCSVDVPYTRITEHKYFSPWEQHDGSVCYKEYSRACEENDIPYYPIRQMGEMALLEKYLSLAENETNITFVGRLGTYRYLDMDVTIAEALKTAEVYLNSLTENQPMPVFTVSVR
UniProt P04406, whole entry: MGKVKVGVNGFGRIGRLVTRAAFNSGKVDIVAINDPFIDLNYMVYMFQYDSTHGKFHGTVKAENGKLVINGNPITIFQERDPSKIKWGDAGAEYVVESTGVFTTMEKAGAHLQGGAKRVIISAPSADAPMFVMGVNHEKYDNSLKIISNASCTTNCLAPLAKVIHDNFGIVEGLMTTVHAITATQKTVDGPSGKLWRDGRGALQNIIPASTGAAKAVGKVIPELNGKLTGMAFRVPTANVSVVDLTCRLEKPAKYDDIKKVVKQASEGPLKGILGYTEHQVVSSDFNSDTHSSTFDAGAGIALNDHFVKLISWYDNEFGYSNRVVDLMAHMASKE
UniProt P29990, whole entry, looked up: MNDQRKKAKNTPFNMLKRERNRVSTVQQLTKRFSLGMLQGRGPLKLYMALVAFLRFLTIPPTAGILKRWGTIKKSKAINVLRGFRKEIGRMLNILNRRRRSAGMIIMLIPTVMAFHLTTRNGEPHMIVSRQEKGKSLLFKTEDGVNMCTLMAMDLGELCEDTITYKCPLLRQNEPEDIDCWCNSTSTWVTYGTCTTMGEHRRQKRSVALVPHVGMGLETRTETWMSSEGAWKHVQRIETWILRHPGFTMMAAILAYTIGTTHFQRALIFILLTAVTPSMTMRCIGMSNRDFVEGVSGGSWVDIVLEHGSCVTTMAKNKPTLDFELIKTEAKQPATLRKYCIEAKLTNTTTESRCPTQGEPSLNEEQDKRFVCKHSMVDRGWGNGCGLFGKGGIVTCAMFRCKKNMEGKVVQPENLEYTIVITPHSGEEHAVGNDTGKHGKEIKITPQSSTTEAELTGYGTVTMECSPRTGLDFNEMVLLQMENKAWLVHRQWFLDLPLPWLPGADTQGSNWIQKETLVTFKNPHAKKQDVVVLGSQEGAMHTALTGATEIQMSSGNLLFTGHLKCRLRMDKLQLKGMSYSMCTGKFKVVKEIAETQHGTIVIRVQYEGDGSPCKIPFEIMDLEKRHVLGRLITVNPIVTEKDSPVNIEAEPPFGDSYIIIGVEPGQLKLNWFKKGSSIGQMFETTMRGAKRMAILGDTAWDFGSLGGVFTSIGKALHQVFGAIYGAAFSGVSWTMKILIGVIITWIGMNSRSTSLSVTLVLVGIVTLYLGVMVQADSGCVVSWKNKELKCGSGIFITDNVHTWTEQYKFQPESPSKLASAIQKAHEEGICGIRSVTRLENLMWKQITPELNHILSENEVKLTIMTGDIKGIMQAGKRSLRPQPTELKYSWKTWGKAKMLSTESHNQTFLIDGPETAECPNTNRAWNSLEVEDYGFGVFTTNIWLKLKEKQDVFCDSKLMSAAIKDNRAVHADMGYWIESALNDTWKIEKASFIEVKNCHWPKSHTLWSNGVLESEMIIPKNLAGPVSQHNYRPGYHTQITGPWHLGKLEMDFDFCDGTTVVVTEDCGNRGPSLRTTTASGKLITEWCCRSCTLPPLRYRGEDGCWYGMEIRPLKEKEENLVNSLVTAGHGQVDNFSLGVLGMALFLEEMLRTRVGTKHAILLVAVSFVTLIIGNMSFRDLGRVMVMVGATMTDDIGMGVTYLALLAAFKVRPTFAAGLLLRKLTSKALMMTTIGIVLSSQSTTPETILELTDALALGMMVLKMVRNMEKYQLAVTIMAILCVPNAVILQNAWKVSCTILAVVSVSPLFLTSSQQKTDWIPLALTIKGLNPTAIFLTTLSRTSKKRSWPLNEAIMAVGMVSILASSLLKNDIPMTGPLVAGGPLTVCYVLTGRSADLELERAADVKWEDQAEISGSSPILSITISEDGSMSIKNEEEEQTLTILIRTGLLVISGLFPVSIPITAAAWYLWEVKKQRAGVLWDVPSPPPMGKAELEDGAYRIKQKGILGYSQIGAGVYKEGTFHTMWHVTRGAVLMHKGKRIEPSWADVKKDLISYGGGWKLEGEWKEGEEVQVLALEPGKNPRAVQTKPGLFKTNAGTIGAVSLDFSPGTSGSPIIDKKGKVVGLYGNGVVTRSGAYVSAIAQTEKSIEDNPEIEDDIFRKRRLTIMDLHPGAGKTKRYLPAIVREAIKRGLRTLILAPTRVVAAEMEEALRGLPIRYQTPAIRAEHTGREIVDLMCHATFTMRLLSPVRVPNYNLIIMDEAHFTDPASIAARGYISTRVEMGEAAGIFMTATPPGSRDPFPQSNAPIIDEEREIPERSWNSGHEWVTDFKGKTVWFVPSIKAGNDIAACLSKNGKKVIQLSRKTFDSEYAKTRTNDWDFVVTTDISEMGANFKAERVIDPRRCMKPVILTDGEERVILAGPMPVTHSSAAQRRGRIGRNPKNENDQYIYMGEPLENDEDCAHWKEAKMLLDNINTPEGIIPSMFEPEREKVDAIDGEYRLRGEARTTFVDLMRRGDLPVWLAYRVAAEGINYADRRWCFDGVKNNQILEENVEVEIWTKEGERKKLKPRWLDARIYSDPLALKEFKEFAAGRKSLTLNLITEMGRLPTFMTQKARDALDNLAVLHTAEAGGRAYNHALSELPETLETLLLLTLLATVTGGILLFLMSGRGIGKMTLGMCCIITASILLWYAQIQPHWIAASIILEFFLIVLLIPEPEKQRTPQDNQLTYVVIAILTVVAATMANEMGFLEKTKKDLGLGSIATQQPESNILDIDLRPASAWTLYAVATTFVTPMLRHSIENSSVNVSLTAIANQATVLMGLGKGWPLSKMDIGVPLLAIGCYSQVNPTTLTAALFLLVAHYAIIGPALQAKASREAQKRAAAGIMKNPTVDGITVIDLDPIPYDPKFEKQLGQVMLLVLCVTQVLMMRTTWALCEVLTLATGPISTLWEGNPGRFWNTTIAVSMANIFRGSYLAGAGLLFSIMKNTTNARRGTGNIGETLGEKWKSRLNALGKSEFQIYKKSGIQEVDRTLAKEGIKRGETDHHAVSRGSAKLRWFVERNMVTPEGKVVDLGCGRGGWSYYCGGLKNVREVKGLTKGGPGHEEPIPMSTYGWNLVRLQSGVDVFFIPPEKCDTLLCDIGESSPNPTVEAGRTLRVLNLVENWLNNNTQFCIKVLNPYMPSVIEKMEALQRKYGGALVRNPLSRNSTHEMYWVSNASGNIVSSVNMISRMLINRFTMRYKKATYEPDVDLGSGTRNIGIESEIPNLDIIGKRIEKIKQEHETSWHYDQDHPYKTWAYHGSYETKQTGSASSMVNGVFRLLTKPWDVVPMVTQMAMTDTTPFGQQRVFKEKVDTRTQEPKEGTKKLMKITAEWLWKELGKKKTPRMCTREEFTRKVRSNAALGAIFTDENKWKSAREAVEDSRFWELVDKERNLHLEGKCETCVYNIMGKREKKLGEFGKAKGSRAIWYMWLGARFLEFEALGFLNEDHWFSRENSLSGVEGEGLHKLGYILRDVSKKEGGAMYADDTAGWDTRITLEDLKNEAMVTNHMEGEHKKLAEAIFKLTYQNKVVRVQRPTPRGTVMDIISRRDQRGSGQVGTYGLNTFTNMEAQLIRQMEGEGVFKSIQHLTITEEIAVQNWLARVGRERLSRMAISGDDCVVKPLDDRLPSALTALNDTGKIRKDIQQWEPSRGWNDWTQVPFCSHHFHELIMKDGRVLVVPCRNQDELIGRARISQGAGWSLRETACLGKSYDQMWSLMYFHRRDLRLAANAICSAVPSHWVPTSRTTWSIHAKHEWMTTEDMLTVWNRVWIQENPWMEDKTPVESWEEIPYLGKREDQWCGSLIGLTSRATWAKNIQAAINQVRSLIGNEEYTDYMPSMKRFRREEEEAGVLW
UniProt P54753, 633-896 limits assumed: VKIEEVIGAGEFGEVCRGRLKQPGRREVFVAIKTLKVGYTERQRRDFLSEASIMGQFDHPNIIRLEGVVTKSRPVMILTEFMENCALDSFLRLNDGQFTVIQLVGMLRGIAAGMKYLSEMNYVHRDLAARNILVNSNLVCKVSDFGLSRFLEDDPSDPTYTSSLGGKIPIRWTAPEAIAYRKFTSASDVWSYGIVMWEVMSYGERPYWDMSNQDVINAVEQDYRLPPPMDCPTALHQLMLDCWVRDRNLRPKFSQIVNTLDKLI
UniProt P12931, whole entry: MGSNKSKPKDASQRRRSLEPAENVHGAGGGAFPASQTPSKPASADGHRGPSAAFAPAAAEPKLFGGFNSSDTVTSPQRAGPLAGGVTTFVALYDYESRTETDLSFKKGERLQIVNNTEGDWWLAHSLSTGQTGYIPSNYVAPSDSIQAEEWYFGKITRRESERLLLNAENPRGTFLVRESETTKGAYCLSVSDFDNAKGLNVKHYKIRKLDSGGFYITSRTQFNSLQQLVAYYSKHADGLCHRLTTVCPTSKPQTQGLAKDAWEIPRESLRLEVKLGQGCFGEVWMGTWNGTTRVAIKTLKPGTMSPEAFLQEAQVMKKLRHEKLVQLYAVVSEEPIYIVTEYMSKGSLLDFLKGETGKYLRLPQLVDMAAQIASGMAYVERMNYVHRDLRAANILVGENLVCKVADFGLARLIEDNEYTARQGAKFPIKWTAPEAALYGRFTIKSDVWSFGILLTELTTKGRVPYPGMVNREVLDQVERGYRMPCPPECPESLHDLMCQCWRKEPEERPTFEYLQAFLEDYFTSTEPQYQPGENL

NC[C@@H](NC[C@@H]1CCCN1C[C@@H](CO)NC[C@@H](NCCC1CC2CCC1C2)c1ccccc1)c1ccccc1 (stereo partly shown) — potentiation of amikacin (Escherichia coli; bacterial growth; 24 µM, fold shift of IC90, with: amikacin): 2.1 fold
C[C@H](CS)C(=O)N[C@@H](Cc1c[nH]c2ccccc12)C(=O)O — MIC of meropenem (Escherichia coli; VIM-1 producing; 25 µM, with: meropenem): 16 µg/mL
NC[C@@H](NC[C@@H]1CCCN1C[C@@H](CO)NC[C@@H](NCCc1ccc(-c2ccccc2)cc1)c1ccccc1)c1ccccc1 — potentiation of amikacin (Klebsiella pneumoniae; bacterial growth; 8 µM, fold shift of IC90, with: amikacin): 1 fold
O=C(NCc1ccc(F)cc1)C(=O)[C@H](Cc1ccccc1)NC(=O)[C@H]1CCC(=O)N1Cc1ccc(F)cc1 — inhibition (Papain; enzyme activity, inhibitor; 1 µM): 27.3%
CCCOC(=O)[C@@]12C[C@@H]1[C@@H](n1cnc3c(NC)nc(C#Cc4ccc(Cl)s4)nc31)[C@H](O)[C@@H]2O — inhibition (SLC6A2 (Homo sapiens, UniProt P23975); binding, radioligand binding; HEK293; 10 µM, negative means enhanced binding, with: [3H]nisoxetine): 36 ± 3%
COc1ccccc1N1CCN(CCCCN2CCCc3ccccc3C2=O)CC1 — inhibition (DRD3 (Homo sapiens, UniProt P35462); radioligand binding; concentration not given, with: [3H]N-methylspiperone): 98.6%
COc1ccc(CN[C@@H]2CO[C@H](C(c3ccccc3)c3ccccc3)C[C@H]2O)cc1 — inhibition (HTR3A (Homo sapiens, UniProt P46098); radioligand binding; 10 µM, with: [3H]LY278584): 18%
O=C(O)CC1Sc2nnc(-c3cccs3)n2N=C1c1ccc(Cl)cc1 (stereo not shown) — inhibition (UDP-galactopyranose mutase (Klebsiella pneumoniae, UniProt Q48485); enzyme activity, inhibitor, HPLC; 100 µM): 95%
CS(=O)(=O)Cc1onc(-c2cccc(Cl)c2)c1-c1ccnc(N[C@@H]2CCN(Cc3nccs3)C2)n1 — inhibition (cGMP-dependent protein kinase (PKG, Plasmodium falciparum, UniProt Q8I719, T618Q); kinase activity, inhibitor, IMAP; 10 µM, gatekeeper mutant): 0 ± 0.5%
C#CCCCN1C(=O)[C@@]2(CN2[S@@+]([O-])C(C)(C)C)c2ccccc21 (stereo partly shown) — inhibition (GAPDH (Homo sapiens, UniProt P04406); enzyme activity, inhibitor; concentration not given): inhibited
N=C(N)NCCC[C@H](NC(=O)c1ccccc1)C(=O)N[C@@H](CCCCN)C(=O)N[C@@H](C(N)=O)c1ccc(OCc2ccccc2)cc1 — inhibition (Genome polyprotein, NS2B-NS3 protease (dengue virus type 2, UniProt P29990); enzyme activity, inhibitor, FRET; dengue virus, serotype 2; 50 µM, with: substrate 50 µM): 100 ± 3%
O=C(CCl)c1ccc2c(Nc3ccccc3)ncnc2c1 — inhibition (EPHB3 (Homo sapiens, UniProt P54753); kinase activity, inhibitor; 2 µM; baseline: DMSO): > 80%
CC(C)C(C(=O)N(Cc1ccc(C2CCCCC2)cc1)c1ccc(C(=O)O)cc1)N(C)S(=O)(=O)c1c(F)c(F)c(F)c(F)c1F (stereo not shown) — inhibition (SRC (Homo sapiens, UniProt P12931); binding, KINOMEscan; 5 µM): 36%
CCNC(=O)C(=O)[C@H](Cc1ccccc1)NC(=O)[C@H]1CCC(=O)N1Cc1ccc(F)cc1 — inhibition (Papain; enzyme activity, inhibitor; 1 µM): 16.3%
NCCNCCSc1ccccc1 — pKa (spectrophotometry; pH 5.8): 5.88
CN1CC[C@]23c4c5ccc(O)c4O[C@H]2c2ncc(-c4ccc(Cl)cc4)cc2C[C@@]3(OCCCc2ccccc2)[C@H]1C5 — days to zero efficacy (tolerance; CD-1 mouse, HIV neuropathy; sc, 3.2 mg/kg twice daily, 3 days): 3 days
